Measured values gathered from unrelated publications.
Compare with care: the assays were run in different laboratories. ± gives the spread as reported.
ACHE: Acetylcholinesterase (ACHE, Homo sapiens, UniProt P22303)
cas9: CRISPR-associated endonuclease Cas9/Csn1 (cas9, Streptococcus pyogenes serotype M1, UniProt Q99ZW2)
HLA class I histocompatibility antigen, B alpha chain allele B*18:01: HLA class I histocompatibility antigen, B alpha chain, allele B*18:01 (Homo sapiens, UniProt P01889)
gag nucleocapsid protein p7: Gag polyprotein, nucleocapsid protein p7 (gag, Human immunodeficiency virus type 1 group M subtype B, UniProt P04591)
Protein kinase 6: Protein kinase 6 (Plasmodium falciparum, UniProt Q8IDW1)
Neuronal acetylcholine receptor; alpha9/alpha10: Neuronal acetylcholine receptor; alpha9/alpha10 (Homo sapiens, UniProt Q9GZZ6+Q9UGM1)

SMILES | target | test | system | conditions | IC50 [µM]
O=C(O)c1cccc(C(=O)O)n1 | 4-hydroxy-tetrahydrodipicolinate synthase (dapA, Escherichia coli K-12, UniProt P0A6L2) | enzyme activity, inhibitor |  | 37 °C | 21200
Nc1c2c(nc3c1C(c1ccc(Cl)c(Cl)c1)c1ccc(OCC(=O)c4ccccc4)cc1O3)CCCC2 (stereo not drawn) | ACHE | enzyme activity, inhibitor |  |  | 0.562
COc1cc(Nc2ncc(F)c(Nc3ccc4c(n3)NC(=O)C(C)(C)O4)n2)cc(OC)c1OC | Tissue-type plasminogen activator (PLAT, Homo sapiens, UniProt P00750) | enzyme activity, inhibitor |  |  | > 10
CCOc1ccc2nc3cc(N)ccc3c(N)c2c1 | cas9 | linear substrate | Streptococcus pyogenes |  | 20 to 50
Cn1cc(C2=C(c3ccc(Cl)cc3Cl)C(=O)NC2=O)c2ccccc21 | Beta-lactamase TEM (bla, Escherichia coli, UniProt P62593) | inhibitor |  |  | > 30
CS[C@H]1SC[C@H]2C(=O)N(C)[C@@H](C(C)C)C(=O)OC[C@@H](NC(=O)c3cnc4ccccc4n3)C(=O)N[C@@H](C)C(=O)N(C)[C@@H]1C(=O)N(C)[C@@H](C(C)C)C(=O)OC[C@@H](NC(=O)c1cnc3ccccc3n1)C(=O)N[C@@H](C)C(=O)N2C | cas9 | circular plasmid substrate | Streptococcus pyogenes |  | 100 to 200
O=c1c2cc(Cl)ccc2[nH]c(=S)n1Cc1ccc(-c2nnn[nH]2)nc1 | Potassium voltage-gated channel subfamily KQT member 1, with KCNE1 (KCNQ1, Homo sapiens, UniProt P51787) | KCNQ1/minK current, inhibitor, manual patch clamp | CHO cells |  | 0.15
Cc1cnc(CNC(=O)c2c(=O)c3ccc(N4CCCN(C)CC4)nc3n3c2sc2ccccc23)cn1 | cas9 | linear substrate | Streptococcus pyogenes |  | 10 to 20
CC(C)C[C@H](NC(=O)[C@@H](N)CCC(=O)O)C(=O)N1CCC[C@H]1C(=O)N[C@@H](CC(=O)O)C(=O)N[C@@H](CCC(=O)O)C(=O)N[C@@H](Cc1ccccc1)C(=O)N[C@H](C(=O)N[C@H](C(=O)N[C@H](C(=O)N[C@H](C(=O)N[C@H](C(=O)O)C(C)C)[C@@H](C)O)C(C)C)C(C)C)C(C)C | HLA class I histocompatibility antigen, B alpha chain allele B*18:01 | peptide-MHC binding, radioligand competition binding |  |  | 1.13
CCOP(=O)(OCC)Oc1ccc2c(C)c(Cl)c(=O)oc2c1 | Acetylcholinesterase (Rhipicephalus microplus, UniProt O45210, W384F) |  |  |  | 0.009
Nc1c2c(nc3c1C(c1cccc(Br)c1)c1ccc(OS(=O)(=O)c4ccccc4)cc1O3)CCCC2 (stereo not drawn) | ACHE | enzyme activity, inhibitor |  |  | 1.34
CSCC[C@H](NC(=O)[C@H](Cc1ccc(O)cc1)NC(=O)[C@H](CC(C)C)NC(=O)[C@H](CCSC)NC(=O)[C@H](CO)NC(=O)CNC(=O)[C@H](CC(C)C)NC(=O)[C@H](CC(C)C)NC(=O)[C@@H](N)CCSC)C(=O)O | HLA class I histocompatibility antigen, B alpha chain allele B*18:01 | peptide-MHC binding, radioligand competition binding |  |  | > 70
C#C[C@]1(O)CC[C@H]2[C@@H]3CCC4=Cc5oncc5C[C@]4(C)[C@H]3CC[C@@]21C | gag nucleocapsid protein p7 | NCp7-RNA binding, AlphaScreen | HIV-1 | with: 25 nM NCp7, 12.5 nM RNA | 1.19
COc1ncccc1-c1cnn2ccc(N3CCN(C(=O)OC(C)C)CC3)nc12 | Neuronal acetylcholine receptor subunit alpha-7 (CHRNA7, Homo sapiens, UniProt P36544) | liability screen |  |  | 24
CCN1CCN(Cc2ccc(Nc3nc4nc(Oc5ccnc(NC(C)=O)c5)ncc4[nH]3)cc2C(F)(F)F)CC1 | Protein kinase 6 | enzyme activity, inhibitor |  |  | 6.3 ± 0.7
CC(C)[C@H](NC(=O)[C@@H](NC(=O)[C@H](CCCNC(=N)N)NC(=O)[C@H](C)NC(=O)[C@H](C)NC(=O)[C@H](CCC(=O)O)NC(=O)[C@H](CO)NC(=O)[C@H](C)NC(=O)[C@@H](N)Cc1ccccc1)C(C)C)C(=O)O | HLA class I histocompatibility antigen, B alpha chain allele B*18:01 | peptide-MHC binding, radioligand competition binding |  |  | 49.5
CC(C)C[C@H](NC(=O)[C@H](Cc1ccccc1)NC(=O)c1cnccn1)B(O)O | Chymase (CMA1, Homo sapiens, UniProt P23946) | enzyme activity, inhibitor |  | with: FP-biotin 1 µM | 4.65
O=c1c(O)c(-c2ccc(O)c(O)c2)oc2cc(O)cc(O)c12 | cas9 | circular plasmid substrate | Streptococcus pyogenes |  | 100 to 200

SMILES | target | test | system | conditions | IC50 [µM]
CNC(C)Cc1ccc2nonc2c1 (stereo not drawn) | Sodium-dependent serotonin transporter (SLC6A4, Homo sapiens, UniProt P31645) |  |  |  | 23.9 ± 5
CCCC[C@@H](NC(=O)[C@@H](N)Cc1c(C)cc(O)cc1C)C(=O)NCC(=O)N[C@@H](Cc1ccc(F)cc1)C(=O)N(C)CCC[C@@]1(c2ccc(F)cc2)OCc2cc(C#N)ccc21 | Delta-type opioid receptor (OPRD1, Homo sapiens, UniProt P41143) |  |  |  | 0.0017
CCC(C(=O)Nc1cc(NC2CNC2)ccc1C)n1cccc2nc(SCc3ccc(F)cc3)nc1-2 (stereo not drawn) | Calpain-1 catalytic subunit (CAPN1, Homo sapiens, UniProt P07384) | enzyme activity |  |  | > 100
OC(CCCN1CCCCC1)(c1ccccc1)c1ccccc1 | Neuronal acetylcholine receptor; alpha9/alpha10 | inhibitor |  |  | 0.44 ± 0.013
O=c1c2ccccc2[nH]c(=S)n1-c1ccccc1 | Xanthine dehydrogenase/oxidase (XDH, Bos taurus, UniProt P80457) | enzyme activity, inhibitor |  |  | 151 ± 4.95
CC(=O)N1C[C@@H](CCN2CC=C(c3c[nH]c4cc(Cl)ccc34)CC2)c2ccccc21 | Sodium-dependent serotonin transporter (SLC6A4, Homo sapiens, UniProt P31645, R104A) |  |  |  | 0.368
NC(=O)CC[C@H](NC(=O)[C@@H]1CC[C@@H]2CCN(C(=O)CCCCCC#Cc3cccc4c3CN(C3CCC(=O)NC3=O)C4=O)C[C@H](NC(=O)c3cc4cc(C(F)(F)P(=O)(O)O)ccc4[nH]3)C(=O)N21)C(=O)NC(c1ccccc1)c1ccccc1 (stereo partly drawn) | STAT5 | binding, fluorescence polarization |  |  | > 10
COc1ccc(S(=O)(=O)Oc2ccc3c(c2)Oc2nc4c(c(N)c2C3c2cccc([N+](=O)[O-])c2)CCCC4)cc1 (stereo not drawn) | ACHE | enzyme activity, inhibitor |  |  | 1.54
O=C(N[C@H](CO)[C@H](O)c1ccc([N+](=O)[O-])cc1)C(Cl)Cl | gag nucleocapsid protein p7 | NCp7-RNA binding, AlphaScreen | HIV-1 | with: 25 nM NCp7, 12.5 nM RNA | 3.36
CCCCCCCCCCCCCC(=O)O[C@@H]1[C@@H](C)[C@@]2(O)[C@@H](C=C(CO)C[C@]3(O)C(=O)C(C)=C[C@@H]23)[C@@H]2C(C)(C)[C@]12OC(C)=O | phorbol ester receptor, mouse | radioligand binding |  |  | 0.00069
C[C@H]1CN(c2n[nH]c3nc(N[C@H]4CC[C@H](NS(=O)(=O)CCC(F)(F)F)CC4)ncc23)CCO1 | Death-associated protein kinase 3 (DAPK3, Homo sapiens, UniProt O43293) | biochemical |  |  | ≥ 20
CCN1CCN(Cc2ccc(Nc3nc4cnc(Oc5ccnc(NC(C)=O)c5)nc4n3C)cc2C(F)(F)F)CC1 | Protein kinase 6 | enzyme activity, inhibitor |  |  | 1.7 ± 0.6
CC1(C)[C@@H](O[C@H]2O[C@H](C(=O)O)[C@@H](O)[C@H](O)[C@H]2O[C@@H]2O[C@H](C(=O)O)[C@@H](O)[C@H](O)[C@H]2O)CC[C@]2(C)[C@H]3C(=O)C=C4[C@@H]5C[C@@](C)(C(=O)O)CC[C@]5(C)CC[C@@]4(C)[C@]3(C)CC[C@@H]12 | cas9 | linear substrate | Streptococcus pyogenes |  | 50 to 100
CN(C)CCC=C1c2ccccc2COc2ccccc21 | Neuronal acetylcholine receptor; alpha9/alpha10 | inhibitor |  |  | 0.13 ± 0.05
CC(CCc1ccccc1)NC(C)C(O)c1ccc(O)cc1 (stereo not drawn) | Alpha-2B adrenergic receptor (ADRA2B, Homo sapiens, UniProt P18089) | inhibitor |  |  | 0.733
CN(C)C(=O)C(CCN1CCC(O)(c2ccc(Cl)cc2)CC1)(c1ccccc1)c1ccccc1 | Calcium-activated potassium channel subunit alpha-1, with LRRC26 γ1 subunit (KCNMA1, Homo sapiens, UniProt Q12791) | BK channel conductance, inhibitor, inside-out patch clamp |  | BKα/γ1, Vm -30 mV, nominally Ca2+-free | 28.7 ± 14
COc1ccccc1C1c2ccc(OS(=O)(=O)c3ccc(C)cc3)cc2Oc2nc3c(c(N)c21)CCCC3 (stereo not drawn) | ACHE | enzyme activity, inhibitor |  |  | 1.03
COc1cccc2c1C(=O)c1c(O)c3c(c(O)c1C2=O)C[C@@](O)(C(=O)CO)C[C@@H]3O[C@H]1C[C@H](N)[C@H](O)[C@H](C)O1 | cas9 | circular plasmid substrate | Streptococcus pyogenes |  | 10 to 20
